Results pooled from the literature.
Lines come from different studies, so protocols differ. Numbers after ± are the reported error.
ALB: Albumin (ALB, Homo sapiens, UniProt P02768)
ABCB1: ATP-dependent translocase ABCB1 (ABCB1, Homo sapiens, UniProt P08183)
Chain of UniProt P08183 (whole entry, looked up): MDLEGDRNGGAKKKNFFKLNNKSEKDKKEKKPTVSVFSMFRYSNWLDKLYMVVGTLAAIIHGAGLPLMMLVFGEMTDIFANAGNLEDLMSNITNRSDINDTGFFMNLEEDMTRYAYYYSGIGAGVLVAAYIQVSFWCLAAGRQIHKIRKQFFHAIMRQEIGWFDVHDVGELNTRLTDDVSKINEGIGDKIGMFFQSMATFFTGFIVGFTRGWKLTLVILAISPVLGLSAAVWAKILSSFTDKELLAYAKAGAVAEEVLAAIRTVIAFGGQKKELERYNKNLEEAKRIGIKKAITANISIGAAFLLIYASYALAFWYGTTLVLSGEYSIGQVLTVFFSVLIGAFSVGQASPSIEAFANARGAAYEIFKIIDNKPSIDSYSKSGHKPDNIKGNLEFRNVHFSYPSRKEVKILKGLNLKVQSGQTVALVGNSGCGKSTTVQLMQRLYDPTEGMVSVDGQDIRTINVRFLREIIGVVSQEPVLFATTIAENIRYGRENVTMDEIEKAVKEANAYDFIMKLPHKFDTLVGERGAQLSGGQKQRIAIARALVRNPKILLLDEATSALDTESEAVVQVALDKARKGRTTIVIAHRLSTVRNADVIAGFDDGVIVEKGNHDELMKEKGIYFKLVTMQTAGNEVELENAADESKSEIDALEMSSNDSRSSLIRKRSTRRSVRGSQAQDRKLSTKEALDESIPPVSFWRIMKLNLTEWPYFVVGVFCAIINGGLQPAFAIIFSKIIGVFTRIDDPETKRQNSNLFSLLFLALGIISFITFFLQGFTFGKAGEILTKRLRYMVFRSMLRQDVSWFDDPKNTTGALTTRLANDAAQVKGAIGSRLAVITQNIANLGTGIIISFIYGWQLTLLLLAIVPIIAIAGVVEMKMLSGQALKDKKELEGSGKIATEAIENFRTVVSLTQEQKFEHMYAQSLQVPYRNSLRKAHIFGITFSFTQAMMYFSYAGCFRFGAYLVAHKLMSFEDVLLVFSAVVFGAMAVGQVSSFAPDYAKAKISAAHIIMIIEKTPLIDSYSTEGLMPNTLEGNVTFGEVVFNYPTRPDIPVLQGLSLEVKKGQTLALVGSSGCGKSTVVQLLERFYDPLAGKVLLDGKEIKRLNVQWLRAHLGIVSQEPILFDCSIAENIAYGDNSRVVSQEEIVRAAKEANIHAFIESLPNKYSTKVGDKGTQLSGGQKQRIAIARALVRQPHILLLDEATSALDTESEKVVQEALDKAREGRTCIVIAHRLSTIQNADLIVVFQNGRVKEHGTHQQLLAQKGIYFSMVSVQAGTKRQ
Nuclear receptor subfamily 1 group I member 3: Nuclear receptor subfamily 1 group I member 3 (Homo sapiens, UniProt Q14994)
Chain of UniProt Q14994 (whole entry, looked up): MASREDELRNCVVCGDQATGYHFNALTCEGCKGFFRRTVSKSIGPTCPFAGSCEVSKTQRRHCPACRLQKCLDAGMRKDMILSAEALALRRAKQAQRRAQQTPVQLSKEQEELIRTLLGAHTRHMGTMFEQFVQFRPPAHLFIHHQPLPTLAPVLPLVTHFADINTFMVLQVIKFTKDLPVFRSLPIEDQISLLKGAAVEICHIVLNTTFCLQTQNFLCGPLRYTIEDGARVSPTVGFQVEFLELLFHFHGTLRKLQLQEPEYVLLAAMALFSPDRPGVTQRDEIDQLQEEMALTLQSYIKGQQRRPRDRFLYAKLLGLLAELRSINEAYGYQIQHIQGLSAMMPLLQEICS
Chain of UniProt P05177 (whole entry, looked up): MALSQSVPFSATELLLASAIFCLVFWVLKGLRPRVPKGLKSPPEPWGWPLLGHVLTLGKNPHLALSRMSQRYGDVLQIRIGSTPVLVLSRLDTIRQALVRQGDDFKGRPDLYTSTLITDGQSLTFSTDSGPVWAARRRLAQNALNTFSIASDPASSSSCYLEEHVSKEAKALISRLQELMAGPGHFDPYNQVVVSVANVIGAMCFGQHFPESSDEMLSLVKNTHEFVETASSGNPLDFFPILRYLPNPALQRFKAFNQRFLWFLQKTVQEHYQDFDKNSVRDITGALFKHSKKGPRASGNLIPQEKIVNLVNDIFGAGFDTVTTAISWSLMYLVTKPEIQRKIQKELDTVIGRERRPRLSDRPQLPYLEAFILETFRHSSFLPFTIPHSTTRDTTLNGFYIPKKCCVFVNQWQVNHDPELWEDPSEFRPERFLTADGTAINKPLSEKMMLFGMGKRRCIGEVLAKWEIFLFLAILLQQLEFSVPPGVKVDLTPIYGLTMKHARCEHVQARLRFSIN
Chain of UniProt P11509 (whole entry, looked up): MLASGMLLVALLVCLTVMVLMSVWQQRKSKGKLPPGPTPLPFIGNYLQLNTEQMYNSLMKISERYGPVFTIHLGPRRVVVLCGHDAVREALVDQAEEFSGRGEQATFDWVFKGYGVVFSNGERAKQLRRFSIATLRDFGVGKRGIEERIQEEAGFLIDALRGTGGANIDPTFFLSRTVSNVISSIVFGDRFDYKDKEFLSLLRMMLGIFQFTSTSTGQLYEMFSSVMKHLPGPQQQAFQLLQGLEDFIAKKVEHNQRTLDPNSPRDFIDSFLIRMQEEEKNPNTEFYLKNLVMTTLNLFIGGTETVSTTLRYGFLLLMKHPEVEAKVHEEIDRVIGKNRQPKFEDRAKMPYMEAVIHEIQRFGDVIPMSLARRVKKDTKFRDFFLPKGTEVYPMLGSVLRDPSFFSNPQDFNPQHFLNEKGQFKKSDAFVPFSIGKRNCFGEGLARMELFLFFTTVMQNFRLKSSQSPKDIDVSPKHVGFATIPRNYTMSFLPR
Chain of UniProt O43704 (whole entry, looked up): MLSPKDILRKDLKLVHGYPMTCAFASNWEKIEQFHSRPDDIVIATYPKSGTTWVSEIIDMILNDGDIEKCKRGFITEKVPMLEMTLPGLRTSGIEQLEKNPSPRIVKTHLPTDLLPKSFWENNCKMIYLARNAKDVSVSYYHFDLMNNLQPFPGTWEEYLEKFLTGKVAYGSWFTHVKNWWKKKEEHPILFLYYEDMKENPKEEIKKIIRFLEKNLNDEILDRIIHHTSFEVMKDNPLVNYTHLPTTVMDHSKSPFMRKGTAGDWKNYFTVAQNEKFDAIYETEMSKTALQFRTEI
Chain of UniProt O60656 (whole entry, looked up): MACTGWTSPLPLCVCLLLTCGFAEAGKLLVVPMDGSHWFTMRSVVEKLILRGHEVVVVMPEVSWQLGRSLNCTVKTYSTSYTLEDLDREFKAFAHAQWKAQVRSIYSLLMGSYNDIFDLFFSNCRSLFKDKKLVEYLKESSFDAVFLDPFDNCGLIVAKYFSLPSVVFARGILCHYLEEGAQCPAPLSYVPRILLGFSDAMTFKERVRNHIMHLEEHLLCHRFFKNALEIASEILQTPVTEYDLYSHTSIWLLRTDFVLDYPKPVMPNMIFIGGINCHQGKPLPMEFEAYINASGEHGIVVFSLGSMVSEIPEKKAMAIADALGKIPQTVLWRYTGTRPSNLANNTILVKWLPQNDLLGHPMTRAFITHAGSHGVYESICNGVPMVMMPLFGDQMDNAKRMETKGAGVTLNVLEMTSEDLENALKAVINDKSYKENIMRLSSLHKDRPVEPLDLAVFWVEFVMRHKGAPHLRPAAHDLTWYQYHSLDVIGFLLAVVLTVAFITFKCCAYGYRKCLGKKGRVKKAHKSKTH
Chain of UniProt P10635 (whole entry, looked up): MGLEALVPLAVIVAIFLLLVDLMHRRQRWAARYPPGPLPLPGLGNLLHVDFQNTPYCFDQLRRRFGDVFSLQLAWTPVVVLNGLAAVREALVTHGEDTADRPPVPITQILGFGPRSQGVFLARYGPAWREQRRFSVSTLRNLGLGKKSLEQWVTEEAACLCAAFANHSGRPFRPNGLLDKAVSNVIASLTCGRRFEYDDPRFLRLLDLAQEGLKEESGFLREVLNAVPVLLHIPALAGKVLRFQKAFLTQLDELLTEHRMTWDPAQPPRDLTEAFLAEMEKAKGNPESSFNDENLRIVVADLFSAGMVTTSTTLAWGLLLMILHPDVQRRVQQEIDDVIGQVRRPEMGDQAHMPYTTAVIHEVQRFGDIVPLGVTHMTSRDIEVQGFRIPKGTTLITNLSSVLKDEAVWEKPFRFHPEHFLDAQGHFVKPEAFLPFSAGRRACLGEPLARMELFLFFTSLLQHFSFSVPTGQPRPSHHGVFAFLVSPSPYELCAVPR

Under “mitochondrial membrane potential”, C1CCC(C(CC2CCCCN2)C2CCCCC2)CC1 (stereo not drawn) is recorded as “decreased” (Cytochrome P450 2D6 (CYP2D6, Homo sapiens, UniProt P10635); HepG2 overexpressing CYP2D6; concentration not given; baseline: empty vector control).
The Kd of `NBD-C12 fatty acid` is reported as 27.5 µM (ALB; binding, switchSENSE; 1% DMSO).
For O=C(c1ccoc1)N1CCN(c2cc(-c3ccco3)nc3cc(-c4ccccc4)nn23)CC1, the IC50 was 4.65 ± 0.74 µM (ABCB1; JC-1 efflux, inhibitor; Jurkat-DNR).
With CC(C)(C)NC(=O)[C@@H]1C[C@@H]2CCCC[C@@H]2CN1C[C@@H](O)[C@H](Cc1ccccc1)NC(=O)[C@H](CC(N)=O)NC(=O)c1ccc2ccccc2n1 the EC20 was 30.4 µM (complex I; oxygen consumption acceleration; BALB/cByJ female mouse liver mitochondria; 60 min, added: malate + glutamate).
The IC50 of O=C(c1ccoc1)N1CCN(c2cc(-c3ccco3)nc3cc(-c4cccc(Cl)c4)nn23)CC1 is reported as 6.42 µM (ABCB1; JC-1 efflux, inhibitor; Jurkat-DNR).
CC[C@H](C)[C@H](NC(=O)[C@H](Cc1ccccc1)NC(=O)[C@H](CCC(=O)O)NC(=O)[C@H](CCCCNC(=O)COCCOCCNC(=O)COCCOCCNC(=O)CC[C@H](NC(=O)CCCCCCCCCCCCCCCCC(=O)O)C(=O)O)NC(=O)[C@H](C)NC(=O)[C@H](C)NC(=O)[C@H](CCC(N)=O)NC(=O)CNC(=O)[C@H](CCC(=O)O)NC(=O)[C@H](CC(C)C)NC(=O)[C@H](Cc1ccc(O)cc1)NC(=O)[C@H](CO)NC(=O)[C@H](CO)NC(=O)[C@@H](NC(=O)[C@H](CC(=O)O)NC(=O)[C@H](CO)NC(=O)[C@@H](NC(=O)[C@H](Cc1ccccc1)NC(=O)[C@@H](NC(=O)CNC(=O)[C@H](CCC(=O)O)NC(=O)C(C)(C)NC(=O)[C@@H](N)Cc1cnc[nH]1)[C@@H](C)O)[C@@H](C)O)C(C)C)C(=O)N[C@@H](C)C(=O)N[C@@H](Cc1c[nH]c2ccccc12)C(=O)N[C@@H](CC(C)C)C(=O)N[C@H](C(=O)N[C@@H](CCCNC(=N)N)C(=O)NCC(=O)N[C@@H](CCCNC(=N)N)C(=O)NCC(=O)O)C(C)C gave an unbound fraction of 4.6% (ALB; binding; 14.8 µM, 2 h).
Nc1ccc(S(=O)(=O)Nc2ccnn2-c2ccccc2)cc1 has an inhibition of 17% (mitochondrial cytochrome P450 rat; inhibitor; 10 µM, 60 min, pH 7.4).
The remaining activity of COc1c2ccoc2c(OC)c2oc(=O)ccc12 is reported as 18 ± 3% (Cytochrome P450 1A2 (CYP1A2, Homo sapiens, UniProt P05177); recombinant microsomes; 8 µM, 8 min preincubation, before dialysis, added: methoxyresorufin; baseline: uninhibited enzyme).
The Cmax ratio of C=CC(=O)N1C[C@H](Nc2ncnc3[nH]ccc23)CC[C@@H]1C is reported as 102% (CYP3A; human, plasma; oral, 30 mg, 5 days, added: itraconazole 200 mg once daily; baseline: with over without itraconazole).
COc1ccc(-c2cc(N3CCN(C(=O)c4ccoc4)CC3)n3nc(-c4cccc(Cl)c4)cc3n2)cc1 has an IC50 of 4.12 ± 1.05 µM (ABCB1; JC-1 efflux, inhibitor; Jurkat-DNR).
With Cc1coc2c1CC[C@@H](C)C2 the remaining activity was 5 ± 1% (Cytochrome P450 2A6 (CYP2A6, Homo sapiens, UniProt P11509); enzyme activity, inhibitor; 20 µM, 10 min, 30 °C, preincubation with NADPH, added: coumarin 7-hydroxylation substrate; baseline: no NADPH control).
Clc1cccc(-c2nc3sccn3c2CNCCc2ccc(Cl)c(Cl)c2)c1 has an Emax of 3.2 (Nuclear receptor subfamily 1 group I member 3; reporter gene, agonist; HepG2-CYP2B6 cells; unit not given; baseline: CITCO).
For CC[C@H](C)[C@H](NC(=O)[C@H](Cc1ccc(O)cc1)NC(=O)[C@@H](NC(=O)[C@@H](N)CCCN=C(N)N)C(C)C)C(=O)N[C@@H](Cc1c[nH]cn1)C(=O)N1CCC[C@H]1C(=O)N[C@@H](Cc1ccccc1)C(=O)O, the peptide hydrolysed was 7.4 ± 1.8% (trypsin; substrate, LC-MS; 20 µM, 4 h, pH 7.4, added: Aβ1-28 10 µM, MINP(A)).
Cc1nc2c([nH]1)c(=O)n(C)c(=O)n2Cc1ccco1 gave an inhibition of 64% (mitochondrial cytochrome P450 rat; inhibitor; 20 µM, 60 min, pH 7.4).
CO[C@H]1/C=C/O[C@@]2(C)Oc3c(C)c(O)c4c(O)c(c(/C=N/N5CCN(C)CC5)c(O)c4c3C2=O)NC(=O)/C(C)=C\C=C\[C@H](C)[C@H](O)[C@@H](C)[C@@H](O)[C@@H](C)[C@H](OC(C)=O)[C@@H]1C has an inhibition of about 55% (OATP1B1 and OATP1B3; rosuvastatin uptake, inhibitor; sandwich-cultured human hepatocytes; 50 µM, added: 0.5 µM [3H]rosuvastatin).
With Cc1nc2cc(-c3cccc(Cl)c3)nn2c(N2CCN(C(=O)c3ccco3)CC2)c1C the IC50 was 8.4 ± 0.7 µM (ABCB1; JC-1 efflux, inhibitor; Jurkat-DNR).
For Oc1cc(O)c2c(c1)O[C@H](c1cc(O)c(O)c(O)c1)[C@H](O)C2, the Km was 135 µM (UDP-glucuronosyltransferase 1A9 (UGT1A9, Homo sapiens, UniProt O60656); substrate; pH 7.4, 37 °C).
The Emax of Clc1ccc(-c2nc3sccn3c2CNCCc2ccc(Cl)c(Cl)c2)cc1 is reported as 2.8 (Nuclear receptor subfamily 1 group I member 3; reporter gene, agonist; HepG2-CYP2B6 cells; unit not given; baseline: CITCO).
The efflux ratio of Cc1ccc(Nc2nccc(N(C)c3ccc4c(C)n(C)nc4c3)n2)cc1S(N)(=O)=O is reported as 1.1 (ABCB1; bidirectional transport; MDCK-MDR1; 5 µM, 240 min, added: erlotinib 5 µM; baseline: B-A over A-B).
O=C(c1ccoc1)N1CCN(c2cc(-c3ccc(F)cc3)nc3cc(-c4cccc(Cl)c4)nn23)CC1 has an IC50 of 5.65 ± 0.11 µM (ABCB1; JC-1 efflux, inhibitor; Jurkat-DNR).
COc1ccc([C@@H]2CC(=O)c3c(O)cc(O)cc3O2)cc1O gave a specific activity of 3.28 ± 0.96 nmol/min/mg (Sulfotransferase 1B1 (SULT1B1, Homo sapiens, UniProt O43704); substrate; 10 µM).
The IC50 of O=C(c1ccsc1)N1CCN(c2cc(-c3ccccc3)nc3cc(-c4cccc(Cl)c4)nn23)CC1 is reported as 3.97 ± 0.8 µM (ABCB1; JC-1 efflux, inhibitor; Jurkat-DNR).
CC(C)[C@H](N)c1nc(C(=O)N[C@H](c2nc(C(=O)O)cs2)C(C)C)cs1 gave an inhibition of 9% (ABCB1; Bodipy-FL-prazosin efflux, flow cytometry; HeLa transduced with BacMam ABCB1; 20 µM, 45 min, 5% FBS; baseline: 1 µM tariquidar).
O=C(c1ccoc1)N1CCN(c2cc(-c3ccccc3)nc3cc(-c4ccc(Br)cc4)nn23)CC1 gave an IC50 of 1.31 ± 0.35 µM (ABCB1; JC-1 efflux, inhibitor; Jurkat-DNR).
For CC(C)[C@H](NC(=O)OC(C)(C)C)c1nc(C(=O)N[C@H](c2nc(C(=O)N[C@H](c3nc(C(=O)O)cs3)C(C)C)cs2)C(C)C)cs1, the inhibition was 10% (ABCB1; efflux transport, inhibitor, flow cytometry; HeLa, transduced with BacMam P-gp; 10 µM, 45 min, 5% FBS, added: Bodipy-FL-prazosin; baseline: tariquidar 1 µM).
The IC50 of O=C(c1ccc(Cl)cc1)N1CCN(c2cc(-c3ccccc3)nc3cc(-c4cccc(Cl)c4)nn23)CC1 is reported as 2.36 ± 0.7 µM (ABCB1; JC-1 efflux, inhibitor; Jurkat-DNR).
CCOC(=O)c1csc([C@@H](NC(=O)c2csc([C@@H](NC(=O)c3csc([C@@H](NC(=O)OC(C)(C)C)C(C)C)n3)C(C)C)n2)C(C)C)n1 has an inhibition of 98% (ABCB1; calcein-AM efflux, flow cytometry; HeLa transduced with BacMam ABCB1; 10 µM, 10 min, 5% FBS, added: calcein-AM 0.5 µM; baseline: 1 µM tariquidar).

For quick reference, copied from above:
Nc1ccc(S(=O)(=O)Nc2ccnn2-c2ccccc2)cc1 has an inhibition of 17% (mitochondrial cytochrome P450 rat; inhibitor; 10 µM, 60 min, pH 7.4).
The efflux ratio of Cc1ccc(Nc2nccc(N(C)c3ccc4c(C)n(C)nc4c3)n2)cc1S(N)(=O)=O is reported as 1.1 (ABCB1; bidirectional transport; MDCK-MDR1; 5 µM, 240 min, added: erlotinib 5 µM; baseline: B-A over A-B).
Clc1cccc(-c2nc3sccn3c2CNCCc2ccc(Cl)c(Cl)c2)c1 has an Emax of 3.2 (Nuclear receptor subfamily 1 group I member 3; reporter gene, agonist; HepG2-CYP2B6 cells; unit not given; baseline: CITCO).
